Measurements collected from several papers.
Each line is one published result; not all experiments were run side by side. “And” joins repeats or separate records; there may be more than shown. ± gives the spread as reported.

C=CC(=O)Nc1cc(Nc2nccc(-c3c[nH]c4ccccc34)n2)c(OC)cc1N(C)CCN(C)C — recovery (storage stability; human plasma; 5 h, -80 °C, high QC level): 90.3%
C/C(N)=N/C(=N\S(=O)(=O)c1ccc(C(F)(F)F)cc1)N1C[C@H](c2ccccc2)C(c2ccc(Cl)cc2)=N1 — AUC(0-inf) (C57BL/6 mouse, plasma; intravenous, 10 mg/kg, observed value): 10300 ng·h/mL
C=C(NC(=O)c1csc(-c2nc3c(cc2O)-c2nc(cs2)C(=O)NC(C(C)O)C(=O)NC(=C(C)OC)c2nc(cs2)C(=O)NC2c4nc(cs4)C(=O)NC(COC(=O)c4c5c6c(cccc6n4O)COC(=O)C(OC4CC(C)(O)C(N(C)C)C(C)O4)C2OC5)c2nc-3cs2)n1)C(N)=O (centres unmarked) — Tmax (ICR mice, Streptococcus pneumoniae ATCC 49169 infected, immunocompromised, blood; intravenous, 2 mg/kg/day three times daily): 6.08 h
N#C[C@@H]1CCCN1C(=O)CNC(=O)c1ccnc2ccc(OCCCN3CCN(C(=O)CCc4ccc5c(c4)CN4CCN(Cc6cc(CCC(=O)O)ccc6O)CC(=O)[O][Al-]([18F])([O]C(=O)C4)[O]5)CC3)cc12 (some centres unmarked) — radiochemical purity (radio-TLC; CD-1 mice, plasma; intravenous, 120 min post-injection): 57.3 ± 6.4%
CN([O-])C(=O)CN1CCN(CC(=O)N(C)[O-])CCN(CC(=O)N(C)[O-])CC1.[89Zr+4] — intact complex (radio-TLC; human serum; 2 days, run 3): 96.1%
CCCC[C@H](OC(C)=O)c1ccccc1C(=O)O — AUC(0-t) (Sprague-Dawley rats, both sexes, whole blood; intravenous, 1.25 mg/kg single dose): 1010 ± 323 ng·h/mL
COC1C=COC2(C)Oc3c(C)c(O)c4c(c3C2=O)C2=NC3(CCN(CC(C)C)CC3)NC2=C(NC(=O)C(C)=CC=CC(C)C(O)C(C)C(O)C(C)C(OC(=O)Nc2cscn2)C1C)C4=O (centres unmarked) — elimination half-life (CD-1 mouse female, plasma; intravenous, 5 mg/kg): 6.8 h
CC(C)(O)c1ccc(N2Cc3c(ccnc3-c3ccc(F)cc3OCC(F)(F)F)C2=O)cc1 — concentration (male C57BL/6 mouse, brain; oral, 300 mg/kg, 6 h): 16200 ng/g
CCC(CC)CNC(=N)NC(=N)NCCCCCCNC(=N)NC(=N)NCC(CC)CC — half-life (metabolic stability; monkey, hepatocytes; 1 µM): 2.81 h
COc1cccc(OC)c1-c1cc(C(=O)NC2(C(=O)O)C3CC4CC(C3)CC2C4)nn1-c1ccc(C(=O)N(C)CCCN(C)CCCN(C)C(=O)[C@H](CCCCNC(=O)[C@H](CC(C)C)NC(=O)C2OC2C(=O)O)NC(=O)CN2CCN(CC(=O)[O-])CCN(CC(=O)[O-])CCN(CC(=O)[O-])CC2)cc1C(C)C.[177Lu+3] (mixture of isomers) — tissue uptake (mouse, HT-29 xenograft, lung; 4 h post injection): 2.7 %ID/g
O=C(Nc1cnccc1-c1ccc([18F])cc1)c1ccnc(NC(=O)C2CC2)c1 — mean SUV (ex vivo gamma counting; GSK-3β transgenic mice, late-stage, large intestine; intravenous, 120 min): 0.67
CCCCN1C(=O)c2cccc3c(NCCCCN4CCOCC4)ccc(c23)C1=O — fluorescence lifetime (DMF): 10 ns
Cc1nn(-c2nc3c(F)cc(F)cc3s2)c(O)c1C(c1ccc(C(F)(F)F)cc1)c1c(C)nn(-c2nc3c(F)cc(F)cc3s2)c1O — Tmax (ICR mouse, plasma; intraperitoneal, 10 mg/kg): 2 h and 0.75 h
Cc1cc(C)n(CCN(CCN)CCCCCCNC(=O)[C@@H](N)Cc2c[nH]cn2)n1.[99Tc+].[C-]#[O+].[C-]#[O+].[C-]#[O+] — tissue uptake (BALB/c nude mice, MCF7 xenograft, blood; intravenous, 15 min): 3.54 ± 0.98 %IA/g
CN(Cc1ccccc1)C(=O)CN1CCN(CC(=O)N(C)Cc2ccccc2)CCN(Cc2cccc(C(=O)[O-])n2)CC1.[44Sc+3] — tracer uptake (mouse, blood; intravenous, 1 h): 2.17 %ID/g
COc1cccc(OC)c1-c1cc(C(=O)NC2(C(=O)O)C3CC4CC(C3)CC2C4)nn1-c1ccc(C(=O)NCCNC(=O)[C@H](CCCCNC(=O)[C@H](CC(C)C)NC(=O)C2OC2C(=O)O)NC(=O)CN2CCN(CC(=O)[O-])CCN(CC(=O)[O-])CCN(CC(=O)[O-])CC2)cc1C(C)C.[177Lu+3] (mixture of isomers) — tissue uptake (mouse, HT-29 xenograft, brain; 4 h post injection): 0.188 %ID/g
N=C(N)NCCC[C@@H]1NC(=O)[C@H](CO)NC(=O)[C@@H](NC(=O)[C@H](CO)NC(=O)[C@H](CO)NC(=O)[C@H](Cc2c[nH]c3ccccc23)NC(=O)CNC(=O)[C@H](CO)NC(=O)[C@@H](N)Cc2c[nH]c3ccccc23)CSSC[C@@H](C(=O)NCC(=O)O)NC(=O)[C@H](CO)NC1=O — Ctrough (patients, plasma; intravenous, 10 mg/kg, thrice weekly, median): 0 ng/mL
CN(Cc1ccccc1)C(=O)CN1CCN(CC(=O)[O-])CCN(CC(=O)N(C)Cc2ccccc2)CC1.[44Sc+3] — uptake (BALB/c mouse, urine; intravenous, 1 h): 153 ± 104 %ID/g
C[N+](C)(CCOCCOCCOCCNC(=S)Nc1ccc(C[C@H]2CN(CC(=O)[O-])CCN(CC(=O)[O-])CCN2CC(=O)[O-])cc1)C[c-]1cccc1.[64Cu+2].[Fe+2].c1cc[cH-]c1 — large intestine uptake (nude mice, BxPC-3 xenograft, large intestine; 8 h, pretargeted, 72 h lag time): 5.2 ± 0.8 %ID/g
COc1cccc(OC)c1-c1cc(C(=O)NC2(C(=O)O)C3CC4CC(C3)CC2C4)nn1-c1ccc(C(=O)N(C)CCOCCN(C)C(=O)[C@H](CCCCNC(=O)[C@H](CC(C)C)NC(=O)C2OC2C(=O)O)NC(=O)CN2CCN(CC(=O)[O-])CCN(CC(=O)[O-])CCN(CC(=O)[O-])CC2)cc1C(C)C.[177Lu+3] (mixture of isomers) — renal retention (HT-29 xenograft mouse, kidney; 168 h; relative to: initial uptake): 12 ± 6%
CC(C)c1cnc(-c2cc(Cl)ccc2F)cc1Nc1ccncc1C(=O)NC(CO)CO — unbound AUC(0-tau) (female C57BL/6 mice, plasma; oral, 30 mg/kg twice daily, day 1, MC-38 tumour-bearing, tau 8 h): 0.343 µM·h
O=C(Nc1cnccc1-c1ccc([18F])nc1)c1ccnc(NC(=O)C2CC2)c1 — SUV (FVB/NJ mice, both sexes, brain; intravenous, 20 min, median, no P-gp inhibitor): 0.085
COc1ccc(Nc2nc(Nc3ccc(OCCOCCOCC[18F])cc3)ncc2Br)cc1 — uptake ratio (ICR mice, S180 tumour; intravenous, 370 kBq, 5 min; relative to: tumour over blood): 0.47
O=C(Nc1ccccc1)C1(C(F)(F)F)CCC1 — logP (water; 24 h): 2.51
CN(Cc1ccccc1)C(=O)CN1CCN(CC(=O)[O-])CCN(CC(=O)[O-])CC1.[44Sc+3] — tracer uptake (mouse, brain; intravenous, 1 h): 0.13 %ID/g
CC[C@H](C)[C@@H](C(=O)N[C@@H](CC(C)C)C(=O)N[C@@H](CO)C(=O)N[C@@H](CO)C(=O)N[C@H](C(=O)N[C@@H](CCC(=O)O)C(=O)N[C@H](C(=O)NCC(=O)N[C@@H](CO)C(=O)N[C@@H](CC(N)=O)C(=O)N[C@H](C(=O)N1C[C@H](O)C[C@H]1C(N)=O)[C@@H](C)O)C(C)C)[C@@H](C)O)N(C)C(=O)[C@H](C)NC(=O)CN(C)C(=O)[C@H](Cc1ccccc1)NC(=O)[C@H](CO)NC(=O)[C@H](CO)NC(=O)[C@H](CCCNC(=N)N)NC(=O)[C@H](CCC(N)=O)NC(=O)[C@H](CC(C)C)NC(=O)[C@H](Cc1ccccc1)NC(=O)[C@H](Cc1c[nH]cn1)NC(=O)[C@H](C)NC(=O)[C@H](CC(C)C)NC(=O)[C@H](CCCNC(=N)N)NC(=O)[C@H](CCC(=O)O)NC(=O)[C@@H](NC(=O)[C@H](C)NC(=O)[C@@H]1CCCNC(=O)C[C@H](NC(=O)[C@H](CCCNC(=N)N)NC(=O)CC[C@H](NC(=O)CCCCCCCCCCCCCCCCCCC(=O)O)C(=O)O)C(=O)NCC(=O)N[C@@H]([C@@H](C)O)C(=O)N[C@@H](C)C(=O)N[C@@H]([C@@H](C)O)C(=O)N1)[C@@H](C)O — main peak area remaining (RP-HPLC; water; 1.0 mg/mL, 7 days, pH 7.5, 40 °C): 98%
O=C([O-])CN1CCN(CC(=O)[O-])CCN(Cc2cccc(C(=O)[O-])n2)CC1.[44Sc+3] — tracer uptake (mouse, lung; intravenous, 1 h): 1.06 %ID/g
CNC(=O)C1CCCN(C(=O)C2CC3CCC2N3C(=O)[C@@H]2C[C@@H](O)CN2C(=O)NCc2cccc(Cl)c2F)C1 (mixture of isomers) — half-life (metabolic stability; monkey, liver microsomes): 1.07 h
O=C([O-])CN1CCN(CC(=O)[O-])CCN(CC(=O)[O-])CC1.[44Sc+3] — tracer uptake (mouse, heart; intravenous, 1 h): 0.1 %ID/g
CC[C@H](C)[C@@H]1NC(=O)[C@H](Cc2ccc(O)cc2)NC(=O)CCCSC[C@@H](C(=O)N(CC(=O)N[C@@H](CC(C)C)C(=O)NCC(N)=O)Cc2ccc(F)cc2)NC(=O)[C@H](CC(N)=O)NC(=O)[C@H](CCC(N)=O)NC1=O — AUC(0-last) (healthy human females, plasma; intranasal, 300 µg single dose): 0.101 ng·h/mL
CN(Cc1ccccc1)C(=O)CN1CCN(CC(=O)[O-])CCN(Cc2cccc(C(=O)[O-])n2)CC1.[177Lu+3] — tracer uptake (mouse, lung; intravenous, 1 h): 0.91 %ID/g
O=C1C2CC3CC1CC(C(=O)N1CCN(c4ccc([N+](=O)[O-])c5ncccc45)CC1)(C3)C2 — AUC(0-inf) (male ICR mouse, plasma; oral, 5 mg/kg): 46.6 ng·h/mL

For quick reference, copied from above:
CN([O-])C(=O)CN1CCN(CC(=O)N(C)[O-])CCN(CC(=O)N(C)[O-])CC1.[89Zr+4] — intact complex (radio-TLC; human serum; 2 days, run 3): 96.1%
CCCCN1C(=O)c2cccc3c(NCCCCN4CCOCC4)ccc(c23)C1=O — fluorescence lifetime (DMF): 10 ns
CN(Cc1ccccc1)C(=O)CN1CCN(CC(=O)[O-])CCN(CC(=O)[O-])CC1.[44Sc+3] — tracer uptake (mouse, brain; intravenous, 1 h): 0.13 %ID/g
CN(Cc1ccccc1)C(=O)CN1CCN(CC(=O)[O-])CCN(Cc2cccc(C(=O)[O-])n2)CC1.[177Lu+3] — tracer uptake (mouse, lung; intravenous, 1 h): 0.91 %ID/g
COC1C=COC2(C)Oc3c(C)c(O)c4c(c3C2=O)C2=NC3(CCN(CC(C)C)CC3)NC2=C(NC(=O)C(C)=CC=CC(C)C(O)C(C)C(O)C(C)C(OC(=O)Nc2cscn2)C1C)C4=O (centres unmarked) — elimination half-life (CD-1 mouse female, plasma; intravenous, 5 mg/kg): 6.8 h
